Measured values collected from several papers.
Numbered parts are unrelated; each lists some results of a single study. Substitutions count along the parent as printed.
Sequence of UniProt O14920 (whole entry, looked up): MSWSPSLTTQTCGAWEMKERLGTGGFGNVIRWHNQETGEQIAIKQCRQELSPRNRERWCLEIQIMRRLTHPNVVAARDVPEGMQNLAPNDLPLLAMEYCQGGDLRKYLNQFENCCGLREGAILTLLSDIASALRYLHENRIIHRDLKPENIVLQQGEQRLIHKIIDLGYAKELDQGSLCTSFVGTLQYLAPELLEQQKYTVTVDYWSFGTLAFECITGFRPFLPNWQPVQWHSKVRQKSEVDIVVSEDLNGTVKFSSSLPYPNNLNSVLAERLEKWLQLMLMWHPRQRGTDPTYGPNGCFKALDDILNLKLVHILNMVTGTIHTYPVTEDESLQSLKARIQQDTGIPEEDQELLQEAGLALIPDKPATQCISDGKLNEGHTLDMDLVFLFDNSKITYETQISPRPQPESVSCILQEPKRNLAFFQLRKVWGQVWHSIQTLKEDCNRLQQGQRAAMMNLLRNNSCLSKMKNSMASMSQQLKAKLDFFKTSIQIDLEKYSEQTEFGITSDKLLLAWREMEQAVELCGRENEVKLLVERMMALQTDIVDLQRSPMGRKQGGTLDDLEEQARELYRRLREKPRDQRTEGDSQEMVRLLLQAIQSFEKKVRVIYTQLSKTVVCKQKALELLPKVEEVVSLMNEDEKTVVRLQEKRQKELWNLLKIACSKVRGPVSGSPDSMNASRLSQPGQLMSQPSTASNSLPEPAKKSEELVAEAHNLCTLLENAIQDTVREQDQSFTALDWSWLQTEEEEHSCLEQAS
Sequence of UniProt P20794 (whole entry, looked up): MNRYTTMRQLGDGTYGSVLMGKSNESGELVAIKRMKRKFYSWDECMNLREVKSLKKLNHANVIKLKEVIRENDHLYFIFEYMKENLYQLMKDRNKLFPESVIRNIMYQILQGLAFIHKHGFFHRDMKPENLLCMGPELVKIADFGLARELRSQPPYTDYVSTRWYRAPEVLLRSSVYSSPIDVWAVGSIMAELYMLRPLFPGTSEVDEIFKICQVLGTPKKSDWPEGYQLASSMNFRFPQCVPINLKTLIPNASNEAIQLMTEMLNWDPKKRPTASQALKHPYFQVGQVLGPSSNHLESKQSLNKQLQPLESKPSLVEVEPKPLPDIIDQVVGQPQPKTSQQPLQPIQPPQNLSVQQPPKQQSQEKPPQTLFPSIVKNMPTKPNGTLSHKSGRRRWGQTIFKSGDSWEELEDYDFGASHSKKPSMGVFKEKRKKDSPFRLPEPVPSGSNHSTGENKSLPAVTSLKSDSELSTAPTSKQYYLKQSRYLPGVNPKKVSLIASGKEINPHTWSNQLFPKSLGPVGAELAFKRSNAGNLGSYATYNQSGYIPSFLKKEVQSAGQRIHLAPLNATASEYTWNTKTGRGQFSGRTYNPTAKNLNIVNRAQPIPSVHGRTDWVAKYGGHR
Sequence of UniProt Q9P2K8 (whole entry, unmodified, looked up): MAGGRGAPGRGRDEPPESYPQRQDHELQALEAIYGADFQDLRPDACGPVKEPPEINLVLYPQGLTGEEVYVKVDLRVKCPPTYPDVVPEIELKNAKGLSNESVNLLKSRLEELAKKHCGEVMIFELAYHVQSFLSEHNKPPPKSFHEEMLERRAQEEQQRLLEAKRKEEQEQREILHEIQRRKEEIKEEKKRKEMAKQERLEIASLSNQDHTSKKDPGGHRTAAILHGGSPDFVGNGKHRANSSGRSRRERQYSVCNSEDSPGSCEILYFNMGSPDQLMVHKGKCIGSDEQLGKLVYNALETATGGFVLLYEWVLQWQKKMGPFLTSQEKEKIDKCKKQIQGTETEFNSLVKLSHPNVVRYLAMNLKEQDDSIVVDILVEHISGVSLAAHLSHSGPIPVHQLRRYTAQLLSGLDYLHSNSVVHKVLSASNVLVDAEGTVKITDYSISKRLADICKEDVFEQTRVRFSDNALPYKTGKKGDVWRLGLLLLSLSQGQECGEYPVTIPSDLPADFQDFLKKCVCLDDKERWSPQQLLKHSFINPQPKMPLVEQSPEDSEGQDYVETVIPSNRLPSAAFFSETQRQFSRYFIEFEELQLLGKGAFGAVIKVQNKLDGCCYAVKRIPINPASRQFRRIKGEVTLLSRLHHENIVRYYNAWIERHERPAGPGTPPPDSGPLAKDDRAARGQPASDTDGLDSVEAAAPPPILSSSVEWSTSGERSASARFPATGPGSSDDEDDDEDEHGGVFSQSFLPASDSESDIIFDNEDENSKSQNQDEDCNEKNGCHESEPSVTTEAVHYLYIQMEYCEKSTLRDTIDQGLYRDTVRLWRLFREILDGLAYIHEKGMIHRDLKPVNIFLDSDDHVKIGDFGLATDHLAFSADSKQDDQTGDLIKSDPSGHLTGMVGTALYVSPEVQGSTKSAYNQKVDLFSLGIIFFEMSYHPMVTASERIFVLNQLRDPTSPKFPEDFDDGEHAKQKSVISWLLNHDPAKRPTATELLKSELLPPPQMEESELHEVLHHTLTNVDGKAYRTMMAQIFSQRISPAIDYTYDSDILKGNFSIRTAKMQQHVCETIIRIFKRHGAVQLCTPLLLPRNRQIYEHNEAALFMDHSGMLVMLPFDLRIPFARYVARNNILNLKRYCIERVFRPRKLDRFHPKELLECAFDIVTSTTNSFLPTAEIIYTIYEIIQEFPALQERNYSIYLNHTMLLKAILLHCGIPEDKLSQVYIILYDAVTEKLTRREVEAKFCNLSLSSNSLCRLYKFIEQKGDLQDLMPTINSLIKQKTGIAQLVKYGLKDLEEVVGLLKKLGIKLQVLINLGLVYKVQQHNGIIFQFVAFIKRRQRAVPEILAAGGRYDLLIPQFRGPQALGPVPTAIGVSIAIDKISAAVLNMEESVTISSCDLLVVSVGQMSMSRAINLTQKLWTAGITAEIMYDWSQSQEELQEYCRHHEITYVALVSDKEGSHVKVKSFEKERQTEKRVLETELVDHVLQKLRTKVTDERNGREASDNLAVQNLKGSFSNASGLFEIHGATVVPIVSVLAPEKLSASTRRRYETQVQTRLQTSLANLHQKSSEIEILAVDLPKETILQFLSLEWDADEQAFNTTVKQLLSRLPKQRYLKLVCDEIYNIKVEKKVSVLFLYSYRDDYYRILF
Sequence of UniProt O14965 (whole entry, looked up): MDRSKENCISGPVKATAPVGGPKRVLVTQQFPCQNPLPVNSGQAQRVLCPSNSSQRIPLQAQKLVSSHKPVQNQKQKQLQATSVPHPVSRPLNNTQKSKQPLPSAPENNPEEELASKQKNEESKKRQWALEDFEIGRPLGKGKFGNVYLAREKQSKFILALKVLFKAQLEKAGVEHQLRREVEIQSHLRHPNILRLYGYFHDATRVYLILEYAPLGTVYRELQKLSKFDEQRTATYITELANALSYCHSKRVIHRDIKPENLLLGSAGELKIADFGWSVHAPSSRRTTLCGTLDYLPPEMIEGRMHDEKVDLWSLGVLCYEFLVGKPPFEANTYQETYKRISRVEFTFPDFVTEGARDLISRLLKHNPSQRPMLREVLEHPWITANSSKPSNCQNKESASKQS
Sequence of UniProt Q96GD4 (whole entry, looked up): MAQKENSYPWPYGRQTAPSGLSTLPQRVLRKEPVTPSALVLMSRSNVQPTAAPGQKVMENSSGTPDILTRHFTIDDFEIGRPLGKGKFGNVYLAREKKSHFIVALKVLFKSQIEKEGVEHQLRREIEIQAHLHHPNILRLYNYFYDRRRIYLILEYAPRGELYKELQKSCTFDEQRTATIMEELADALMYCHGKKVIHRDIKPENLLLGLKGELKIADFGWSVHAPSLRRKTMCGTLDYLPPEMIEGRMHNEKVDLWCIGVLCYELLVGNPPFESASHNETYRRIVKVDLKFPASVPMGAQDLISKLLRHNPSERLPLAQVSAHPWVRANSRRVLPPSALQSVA

Set 1
Target: Sal-like protein 4, full length isoform A (SALL4, Homo sapiens, UniProt Q9UJQ4, residues 1-1053)
Sequence of UniProt Q9UJQ4 (whole entry, looked up): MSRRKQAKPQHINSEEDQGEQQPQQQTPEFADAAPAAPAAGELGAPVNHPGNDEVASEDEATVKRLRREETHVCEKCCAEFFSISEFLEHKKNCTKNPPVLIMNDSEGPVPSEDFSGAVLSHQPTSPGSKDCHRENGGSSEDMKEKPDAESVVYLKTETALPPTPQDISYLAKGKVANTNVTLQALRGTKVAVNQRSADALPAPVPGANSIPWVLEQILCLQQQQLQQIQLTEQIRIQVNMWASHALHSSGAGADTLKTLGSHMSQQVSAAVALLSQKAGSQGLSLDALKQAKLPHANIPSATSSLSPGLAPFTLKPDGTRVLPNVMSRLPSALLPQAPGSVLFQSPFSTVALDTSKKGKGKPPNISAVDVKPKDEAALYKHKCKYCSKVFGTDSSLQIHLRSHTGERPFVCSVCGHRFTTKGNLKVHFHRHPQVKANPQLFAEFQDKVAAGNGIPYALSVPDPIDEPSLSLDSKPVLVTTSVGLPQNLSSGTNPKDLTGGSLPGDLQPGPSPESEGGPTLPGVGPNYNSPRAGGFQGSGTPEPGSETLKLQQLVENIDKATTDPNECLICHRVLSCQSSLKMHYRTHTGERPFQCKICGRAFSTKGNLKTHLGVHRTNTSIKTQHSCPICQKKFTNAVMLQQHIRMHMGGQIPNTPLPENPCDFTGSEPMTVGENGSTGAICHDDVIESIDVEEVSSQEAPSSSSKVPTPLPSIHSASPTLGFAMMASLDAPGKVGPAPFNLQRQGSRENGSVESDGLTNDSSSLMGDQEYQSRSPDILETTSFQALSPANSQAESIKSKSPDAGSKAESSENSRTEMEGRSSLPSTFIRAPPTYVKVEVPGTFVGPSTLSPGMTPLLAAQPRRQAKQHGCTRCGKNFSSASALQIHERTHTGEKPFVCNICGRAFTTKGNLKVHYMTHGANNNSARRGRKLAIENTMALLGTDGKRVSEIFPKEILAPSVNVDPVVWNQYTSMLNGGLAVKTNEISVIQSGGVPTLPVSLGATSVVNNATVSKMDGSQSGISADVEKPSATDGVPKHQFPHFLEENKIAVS
Method: universal PBM
Molecule type: double-stranded DNA, one strand shown
Sample: in vitro
Concentration: 600 nM
Setting: 8-mer, flanks averaged, mean of replicates
Reading: higher = stronger binding
| Strand | E-score |
| --- | --- |
| AGTGATTG | 0.0738 |
| ATCTCCCC | -0.16 |
| ACCCTAAC | -0.0669 |
| CAGCCGCG | -0.251 |
| CGAGTTAA | -0.0272 |
| GCCACCCA | -0.341 |
| GTCTGAAA | -0.0447 |
| CCGCACCA | -0.21 |

Set 2
SMILES: CS(=O)(=O)N1CCCC(NC(=O)[C@H](CCC2CCCCC2)NC(=O)c2ccc(CNc3ncnc4c3nnn4-c3ccccc3)cc2)C1 (stereo partly shown)
Observed: cell-free assay
Method: competition with immobilised ligand
Concentration: 0.1 µM
| target | remaining binding [%] |
| --- | --- |
| STK4 (Homo sapiens, UniProt Q13043) | 100 |
| MAK (Homo sapiens, UniProt P20794) | 100 |
| ALK (Homo sapiens, UniProt Q9UM73, L1196M) | 100 |
| MAP3K3 (Homo sapiens, UniProt Q99759) | 100 |
| Aurora kinase A (AURKA, Homo sapiens, UniProt O14965) | 100 |
| NEK5 (Homo sapiens, UniProt Q6P3R8) | 95 |
| Tyrosine-protein kinase ABL1, phosphorylated (ABL1, Homo sapiens, UniProt P00519, T315I) | 100 |
| Aurora kinase B (AURKB, Homo sapiens, UniProt Q96GD4) | 100 |
| STK35 (Homo sapiens, UniProt Q8TDR2) | 100 |
| EGFR (Homo sapiens, UniProt P00533) | 100 |
| NEK1 (Homo sapiens, UniProt Q96PY6) | 51 |
| eIF-2-alpha kinase GCN2, C-terminal kinase domain (EIF2AK4, Homo sapiens, UniProt Q9P2K8, S808G) | 100 |
| EIF2AK1 (Homo sapiens, UniProt Q9BQI3) | 81 |
| IKBKB (Homo sapiens, UniProt O14920) | 100 |

Set 3
Target: CEP164, C-terminal peptide (human)
Method: DHFR complementation, deep sequencing
Sample: yeast
Setting: single substitutions, model-inferred values
Relative to: wild type
Reading: higher = weaker binding
Parent: PDZK1, PDZ domain 2 (human); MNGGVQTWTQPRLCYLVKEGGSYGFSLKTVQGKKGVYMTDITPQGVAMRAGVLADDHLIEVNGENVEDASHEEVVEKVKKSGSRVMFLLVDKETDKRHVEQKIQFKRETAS; partner HNRVKVYRF
| Substitution | binding free energy change [kcal/mol] |
| --- | --- |
| R49Y | 0.33 |
| N62V | 1.71 |
| E108N | 0.738 |
| N62L | 1.19 |
| Q101P | -0.021 |
| K79H | 0.388 |
| V74I | -0.0704 |
| A50K | 0.479 |

Set 4
Target: Protein kinase C iota type (PRKCI, Homo sapiens, UniProt P41743)
Observed: enzyme activity
Mode: inhibitor
Concentration: 0.5 µM
Relative to: control
Construct (P41743 1-596): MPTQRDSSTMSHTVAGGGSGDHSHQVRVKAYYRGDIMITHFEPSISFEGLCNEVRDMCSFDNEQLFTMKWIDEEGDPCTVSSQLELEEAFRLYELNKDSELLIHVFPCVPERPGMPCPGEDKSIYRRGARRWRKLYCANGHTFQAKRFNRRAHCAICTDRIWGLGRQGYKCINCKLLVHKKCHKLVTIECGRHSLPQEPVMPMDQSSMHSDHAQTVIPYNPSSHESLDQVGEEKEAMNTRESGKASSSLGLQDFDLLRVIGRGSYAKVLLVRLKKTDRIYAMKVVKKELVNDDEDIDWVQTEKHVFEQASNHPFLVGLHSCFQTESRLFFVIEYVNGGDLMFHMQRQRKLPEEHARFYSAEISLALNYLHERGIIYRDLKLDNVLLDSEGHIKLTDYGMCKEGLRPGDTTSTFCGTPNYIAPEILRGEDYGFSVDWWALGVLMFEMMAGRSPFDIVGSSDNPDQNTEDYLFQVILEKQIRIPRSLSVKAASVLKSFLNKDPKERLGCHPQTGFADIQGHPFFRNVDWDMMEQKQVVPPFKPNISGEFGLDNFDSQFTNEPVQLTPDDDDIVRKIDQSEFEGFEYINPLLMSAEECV
| SMILES | remaining activity |
| --- | --- |
| c1ccc(-c2cnc(Nc3ccc(OCCN4CCCC4)cc3)s2)cc1 | 93.1% |
| CCOc1nc(NC(=O)Cc2cc(OC)ccc2OC)cc(N)c1C#N | 100% |
| O=C1c2ccccc2-c2n[nH]c3cccc1c23 | 95% |

Further values, each from its own experiment
| Substance | target | assay | system | setting | how to read | measurement | value |
| --- | --- | --- | --- | --- | --- | --- | --- |
| PhoQ, residues 284 288 289 292 302 303 TLSLKA | PhoP, residues 12 14 15 18 19 SYFRT (Escherichia coli, UniProt P23836) | Sort-seq, measured: YFP reporter | E. coli | PhoQ-PhoP variant library, together with: 10 µM Mg2+ | relative to: high Mg2+ state, higher = stronger signaling | fold induction | 6.86 |

For quick reference, copied from above (set 3):
| Substitution | binding free energy change [kcal/mol] |
| --- | --- |
| N62V | 1.71 |
| E108N | 0.738 |
| N62L | 1.19 |
| Q101P | -0.021 |
